Published values of several laboratories.
Each numbered part is a random draw from the data of one study; scales do not carry over between parts. Positions count from the first letter of the parent shown.

Study 1
Target: ABI1, truncated, D143A, DHFR fusion (Arabidopsis thaliana)
Technique: DHFR PCA, deep sequencing
Medium: yeast
Setting: methotrexate growth selection, single substitutions
Added: (+)-ABA 0.032 µM
Reference: wild-type fitted maximum
Direction: higher = stronger binding
Quantity: relative binding score
Parent: PYL1, truncated, DHFR fusion (Arabidopsis thaliana); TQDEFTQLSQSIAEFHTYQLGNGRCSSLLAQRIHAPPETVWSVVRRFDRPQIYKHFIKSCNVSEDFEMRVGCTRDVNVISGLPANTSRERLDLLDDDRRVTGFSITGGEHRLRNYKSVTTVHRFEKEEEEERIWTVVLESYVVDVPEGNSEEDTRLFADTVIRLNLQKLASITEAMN; partner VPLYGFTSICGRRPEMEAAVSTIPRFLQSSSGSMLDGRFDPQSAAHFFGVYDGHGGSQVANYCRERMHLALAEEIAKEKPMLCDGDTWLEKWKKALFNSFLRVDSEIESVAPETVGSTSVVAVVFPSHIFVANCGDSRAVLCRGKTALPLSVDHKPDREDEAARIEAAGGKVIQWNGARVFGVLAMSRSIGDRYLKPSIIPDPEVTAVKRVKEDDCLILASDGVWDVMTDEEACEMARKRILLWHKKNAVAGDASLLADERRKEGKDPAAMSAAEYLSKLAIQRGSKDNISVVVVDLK
V70Q: 2.54%
M176I: 7.72%
V161Q: 39.9%
D95P: 1.64%
A158F: 0.123%
E174F: -9.18%
I33K: -7.13%
E89K: -2.69%
K54V: -2.11%
V143G: -1.94%
V118K: -1.4%
L94E: -1%
I52M: 34.2%
V70L: 2.69%
A158N: 15.6%
E125Y: 34.4%
N165H: 5.48%
E147G: -4.98%
Q2C: 31.2%
N77A: 39.1%
R132L: 22%

Study 2
Target: RNA binding protein fox-1 homolog 2, RRM domain, GST-SBP tag (RBFOX2, Homo sapiens, UniProt O43251-10, residues 100-194)
Technique: RNA Bind-n-Seq
Form: RNA
Medium: in vitro
Concentration: 365 nM
Setting: natural RNA segment, single round, ends assumed
Reference: no-protein control
Direction: higher = stronger binding
Quantity: RBNS enrichment (R)
Constant ends, left off below: GGGAGUUCUACAGUCCGACGAUC … UGGAAUUCUCGGGUGCCAA
CUCCAGCGGUGGGGAAGCCGCUGAAUCCACCUGCUUCUCCUUUGCAACCGACAGCAAACAGCUUUCUCCGGCCUCAGGGCAGAAAAAGGGAAUGGCAGGGAGUAAGAGGC: 0.419
UCUUCAUGUUUUAACAAAAAAGAAAAAAAGAAAAAAAAUCCCAUCCCUUUUGUACAUACUCCUGUAAAUUGUUUUAAAUACUUGAGCCUUUUCUUGGAGGGGGAGGGAAG: 0.444
GCCCUAAAACCUAAAUUUCAUUCAUGAAAUUUUUUUCUAAUUUUAAACACCCAGAAUCCCAUGUCCUUUGACUUGCAGUGUAGCUAUCUAGAAUGAAACACUUGCCUUGC: 0.659
AGGCAGAGCUUGUGGAGAUUCAUGAAAGAGUCAUAGCCAGUUUGGCAUGCAGAGGUCUUCAGUCUUGCUUAUUCUUCUCCUGGGCUUCUUGACACAGGGGCAGAAGAAAC: 0.714
UUUUAAGAUGAAUUAAGGACUAUUAGCUCGAACUUCGAUGCAGAGUUUGUAAAUAAGGGUGUCUGUGCAGAUUUCCCCACAUUUAUUUGUAUAAAAAUUUCUCAUCUUUU: 0.542
AGGGGAACACCCCCUUCCCCAGGUCUUUUAUUUGUUUAAGUUAUUUUUGCACAAAUGACUCUUUUAUAUUUAAUUCGAUUUCAUUGCCUCCCUUCUUAAAGCCAACAGGC: 0.962
CCAGGUUGGCCAGGCUGGUCUUGUGAACUCCUGGCCUCAGGUGAUCUGCCCACCUCAUCCUCCAAAAGUGCUGGGAUUACAGGCAUGAGCCACUGCGCCUGGCCUCAGAA: 0.438
CACAAUGAAAGAAUGCAAUCUUCCCACCAGCUACAUGACUACUUGUUCUCUGUGAAGUGUACUCUUGGGAAGUAUUAACUUUAUAUACAGUUCAGGGGAUCUCAGCUAAC: 0.448

Study 3
Target: Histone acetyltransferase KAT6A, both winged helices, GST fusion (KAT6A, Homo sapiens, UniProt Q92794, residues 1-181)
Technique: protein binding microarray
Form: double-stranded DNA, one strand shown
Medium: in vitro
Concentration: not given
Setting: 8-mer, flanks averaged, mean of 2 arrays, mostly near background
Reference: not given
Direction: higher = stronger binding
Quantity: E-score
Construct (chain): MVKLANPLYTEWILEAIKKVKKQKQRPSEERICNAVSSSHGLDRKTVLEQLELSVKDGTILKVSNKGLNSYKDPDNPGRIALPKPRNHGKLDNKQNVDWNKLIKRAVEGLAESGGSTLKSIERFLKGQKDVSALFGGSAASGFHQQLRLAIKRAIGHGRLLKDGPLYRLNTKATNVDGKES
CAGTCTGG: -0.132
CCCGGCAA: 0.202
CGACAGAA: 0.147
ATAGTAGC: 0.109
CAAAGGGC: -0.144
AGATGTAG: -0.181
GCGACTCA: -0.0183
TGAAAGCA: -0.191
TTATACAA: -0.1
AAGTTTGT: -0.0452
CAGATGGC: -0.0901
CGCGTCAG: 0.182
CACGCCTG: -0.0908
GAGGAGCA: -0.0318
CGCGCCGC: 0.377
GGTGTAAA: -0.112
CAATCTGC: -0.053
AACTTGAC: -0.111
CTGAAACC: 0.0076
ATCCTGCG: 0.0722
GTGCAGCA: -0.000955
CACGAGAA: -0.132
CGAGCAGA: -0.0992
CACTTTCC: -0.135
ATTGGGTA: -0.187

Study 4
Target: Prothrombin, mature alpha-thrombin (F2, Homo sapiens, UniProt P00734)
Technique: aptamer microarray, sandwich
Form: DNA with 2'F-ANA
Medium: in vitro
Concentration: 200 nM
Setting: whole 15-mer aptamer, many near background
Added: Cy3 exosite-II aptamer, 400 nM
Direction: higher = stronger binding
Quantity: mean fluorescence intensity
Strand: GGTTGGTGTGGTTGG
2'F-ANA at 6 7 9 10 11 12 13 15: 158 a.u.
2'F-ANA at 2 5 7 9 11 14 15: 48.4 a.u.
2'F-ANA at 1 8 10 12: 69.8 a.u.
2'F-ANA at 3 4 5 7 9 13 14 15: 198 a.u.
2'F-ANA at 5 7: 153 a.u.
2'F-ANA at 1 2 3 6 8 13 14: 73.5 a.u.
2'F-ANA at 2 4 5 6 7 8 11 14 15: 45.3 a.u.
2'F-ANA at 1 2 3 5 7 9 13 15: 50.1 a.u.
2'F-ANA at 1 2 4 9 10 11 15: 54.8 a.u.
2'F-ANA at 1 3 6 8 9 10 14 15: 62.1 a.u.
2'F-ANA at 1 7 10 12 15: 84.3 a.u.
2'F-ANA at 2 4 5 6 7 9 11 12 13 14: 46 a.u.
2'F-ANA at 1 3 5 6 8 10 12 14: 129 a.u.
2'F-ANA at 4 6 7 8 10 12 14: 66.1 a.u.
2'F-ANA at 3 5 6 11 12 13 15: 145 a.u.
2'F-ANA at 2 4 5 6 7 8 9 11 12 13: 89.1 a.u.
2'F-ANA at 1 2 4 6 7 8 9 10 11 12 13 14: 57.5 a.u.

Some of these lines once more (study 2):
CCAGGUUGGCCAGGCUGGUCUUGUGAACUCCUGGCCUCAGGUGAUCUGCCCACCUCAUCCUCCAAAAGUGCUGGGAUUACAGGCAUGAGCCACUGCGCCUGGCCUCAGAA: 0.438
CACAAUGAAAGAAUGCAAUCUUCCCACCAGCUACAUGACUACUUGUUCUCUGUGAAGUGUACUCUUGGGAAGUAUUAACUUUAUAUACAGUUCAGGGGAUCUCAGCUAAC: 0.448
AGGCAGAGCUUGUGGAGAUUCAUGAAAGAGUCAUAGCCAGUUUGGCAUGCAGAGGUCUUCAGUCUUGCUUAUUCUUCUCCUGGGCUUCUUGACACAGGGGCAGAAGAAAC: 0.714
UUUUAAGAUGAAUUAAGGACUAUUAGCUCGAACUUCGAUGCAGAGUUUGUAAAUAAGGGUGUCUGUGCAGAUUUCCCCACAUUUAUUUGUAUAAAAAUUUCUCAUCUUUU: 0.542
UCUUCAUGUUUUAACAAAAAAGAAAAAAAGAAAAAAAAUCCCAUCCCUUUUGUACAUACUCCUGUAAAUUGUUUUAAAUACUUGAGCCUUUUCUUGGAGGGGGAGGGAAG: 0.444
GCCCUAAAACCUAAAUUUCAUUCAUGAAAUUUUUUUCUAAUUUUAAACACCCAGAAUCCCAUGUCCUUUGACUUGCAGUGUAGCUAUCUAGAAUGAAACACUUGCCUUGC: 0.659
AGGGGAACACCCCCUUCCCCAGGUCUUUUAUUUGUUUAAGUUAUUUUUGCACAAAUGACUCUUUUAUAUUUAAUUCGAUUUCAUUGCCUCCCUUCUUAAAGCCAACAGGC: 0.962
